Results of several laboratories.
Compare with care: the assays were run in different laboratories. Several values in a cell are separate wells, animals, samples, runs or records. ± marks the error that the study gave.

`Cc1nc([C@@](C)(CC2CC2)NC(=O)c2cc(OCC(F)(F)F)c(C3CC3)cn2)no1` gave a half-life of 8.42 h (C57BL/6 mice; oral, 2.8 mg/kg).
`Cc1[nH]c(C)c(S(=O)(=O)Nc2ccc(S(F)(F)(F)(F)F)cc2)c1C(=O)N1CCC(F)(F)C1` gave a half-life of greater than 8 h (mice, brain; intraperitoneal, 40 mg/kg).
With `CC[C@H](C)[C@H](NC(=O)[C@H](Cc1ccccc1)NC(=O)[C@H](CCC(=O)O)NC(=O)[C@H](CCCCN)NC(=O)[C@H](C)NC(=O)[C@H](C)NC(=O)[C@H](CCC(N)=O)NC(=O)CNC(=O)[C@H](CCC(=O)O)NC(=O)[C@H](CC(C)C)NC(=O)[C@H](Cc1ccc(O)cc1)NC(=O)[C@H](CO)NC(=O)[C@H](CO)NC(=O)[C@@H](NC(=O)[C@H](CC(=O)O)NC(=O)[C@H](CO)NC(=O)[C@@H](NC(=O)[C@H](Cc1ccccc1)NC(=O)[C@@H](NC(=O)CNC(=O)[C@H](CCC(=O)O)NC(=O)[C@H](C)NC(=O)N(N)Cc1c[nH]cn1)[C@@H](C)O)[C@@H](C)O)C(C)C)C(=O)N[C@@H](C)C(=O)N[C@@H](Cc1c[nH]c2ccccc12)C(=O)N[C@@H](CC(C)C)C(=O)N[C@H](C(=O)N[C@@H](CCCNC(=N)N)C(=O)NCC(=O)N[C@@H](CCCNC(=N)N)C(=O)NCC(=O)O)C(C)C` the half-life was 1.79 h and 2.11 h and 1.09 h (male ICR mice, plasma; intravenous bolus, 1 mg/kg).
For `C[C@H]1COCCN1c1nc(NCc2cccnc2C(F)(F)F)c2cccnc2n1`, the half-life was 3.5 h (BALB/c mice; intravenous, 5 mg/kg).
`NC(=O)[C@@H]1CC(F)(F)CN1C(=O)c1ccc(N2CC(F)(F)C2)c(OCC2CC2)n1` gave a half-life of 1.78 h (C57BL/6 mice; intravenous, 0.5 mg/kg).
For `C[C@H]1N=C(c2ccccc2F)c2cc(Br)ccc2-n2cnc(C(=O)O)c21`, the half-life was 0.837 h (mice, blood; oral gavage, 100 mg/kg).
`CC(=O)N[C@@H](CSC(=S)Nc1ccc(NC(=S)SC[C@H](NC(C)=O)C(=O)O)cc1)C(=O)O.O` has a maximum inhibition of 14.8% (human coronavirus OC43; virus-induced cell killing; MRC-5; screen).
For `Cc1ncc2n1-c1ccc(Cl)cc1C(c1ccccc1F)=NC2`, the half-life was 0.27 ± 0.0183 h (wild-type mice, plasma; intravenous, 0.3 mg/kg, with: 14-day BC 500 mg/kg).
For `COc1cc(C)[nH]c(=O)c1CNC(=O)c1c(C)n([C@H](C)C2CCN(CC(F)(F)F)CC2)c2ccccc12`, the half-life was 1.24 h (female CB17 SCID mice, HT-1376 xenograft, plasma; 75 mg/kg, day 1).
With `CCc1cc(Nc2nccc(-c3c(-c4ccc(OC)c(C(=O)Nc5c(F)cccc5F)c4)nc4ccccn34)n2)c(OC)cc1N1CCC(N2CCN(S(C)(=O)=O)CC2)CC1` the maximum inhibition was 53.5% (human coronavirus OC43; virus-induced cell killing; MRC-5; screen).

Some of these lines once more:
With `CCc1cc(Nc2nccc(-c3c(-c4ccc(OC)c(C(=O)Nc5c(F)cccc5F)c4)nc4ccccn34)n2)c(OC)cc1N1CCC(N2CCN(S(C)(=O)=O)CC2)CC1` the maximum inhibition was 53.5% (human coronavirus OC43; virus-induced cell killing; MRC-5; screen).
